Measurements from different studies.
A part holds a random share of what one study measured.

Block 1
Target: Sal-like protein 4, full length isoform A (SALL4, Homo sapiens, UniProt Q9UJQ4, residues 1-1053)
Sequence of UniProt Q9UJQ4 (whole entry, looked up): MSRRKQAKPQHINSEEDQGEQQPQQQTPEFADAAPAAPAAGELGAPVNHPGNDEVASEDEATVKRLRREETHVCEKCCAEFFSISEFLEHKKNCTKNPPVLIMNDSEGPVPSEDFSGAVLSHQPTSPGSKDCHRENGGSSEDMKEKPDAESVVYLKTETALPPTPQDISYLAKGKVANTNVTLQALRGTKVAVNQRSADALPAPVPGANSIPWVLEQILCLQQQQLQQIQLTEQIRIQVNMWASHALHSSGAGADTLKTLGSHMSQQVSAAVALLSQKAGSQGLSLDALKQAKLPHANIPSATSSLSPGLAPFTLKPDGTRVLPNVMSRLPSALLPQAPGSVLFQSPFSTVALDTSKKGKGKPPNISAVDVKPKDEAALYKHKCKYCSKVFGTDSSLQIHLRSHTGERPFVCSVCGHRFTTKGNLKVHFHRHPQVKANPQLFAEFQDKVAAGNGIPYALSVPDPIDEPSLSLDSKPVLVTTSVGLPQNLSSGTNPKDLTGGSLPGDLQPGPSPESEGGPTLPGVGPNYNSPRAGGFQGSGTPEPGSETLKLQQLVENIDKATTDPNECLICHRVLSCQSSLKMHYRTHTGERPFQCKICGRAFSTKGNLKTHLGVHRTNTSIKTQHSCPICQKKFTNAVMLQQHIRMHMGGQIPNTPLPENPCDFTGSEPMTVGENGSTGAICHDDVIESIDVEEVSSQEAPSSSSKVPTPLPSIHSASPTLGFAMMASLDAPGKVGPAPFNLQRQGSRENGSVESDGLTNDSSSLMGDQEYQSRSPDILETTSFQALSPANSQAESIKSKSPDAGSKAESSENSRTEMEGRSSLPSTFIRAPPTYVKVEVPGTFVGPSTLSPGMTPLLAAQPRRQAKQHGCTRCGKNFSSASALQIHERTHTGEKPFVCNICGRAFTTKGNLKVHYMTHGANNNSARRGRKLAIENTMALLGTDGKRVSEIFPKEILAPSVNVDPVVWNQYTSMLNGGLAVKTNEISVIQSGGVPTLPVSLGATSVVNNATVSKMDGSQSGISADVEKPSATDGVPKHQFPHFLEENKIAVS
Method: universal PBM
Form: double-stranded DNA, one strand shown
Sample: in vitro
Tested at: 600 nM
Setting: 8-mer, flanks averaged, mean of replicates
Direction: higher = stronger binding
Sequence | E-score
GTGACTGA | -0.0135
CGGCGTGC | -0.231
CCGAGATA | -0.00976
ATCCCCGC | -0.286
GTCTGTAA | 0.102
AATAACCT | 0.3
CAGGGTGA | -0.173
CGATCGTC | -0.157
CGCAAGAA | -0.212
AGGGCGAA | -0.0804
CGTTCGAG | -0.135
ATGTTTCC | 0.0508
GCTTTGAA | 0.194
ACTTTCTC | 0.0366
CCAGTTGC | -0.202
GAGTATGA | 0.181
CATCGGCC | -0.316

Block 2
Target: RING finger protein unkempt homolog, zinc fingers 1-6, GST-SBP tag (UNK, Homo sapiens, UniProt Q9C0B0, residues 30-357)
Method: RNA Bind-n-Seq
Form: RNA
Sample: in vitro
Tested at: not given
Setting: RNA with constant flanks, human-mouse chimeric sites, ends assumed
Reference: input RNA pool
Direction: higher = stronger binding
Residues (chain): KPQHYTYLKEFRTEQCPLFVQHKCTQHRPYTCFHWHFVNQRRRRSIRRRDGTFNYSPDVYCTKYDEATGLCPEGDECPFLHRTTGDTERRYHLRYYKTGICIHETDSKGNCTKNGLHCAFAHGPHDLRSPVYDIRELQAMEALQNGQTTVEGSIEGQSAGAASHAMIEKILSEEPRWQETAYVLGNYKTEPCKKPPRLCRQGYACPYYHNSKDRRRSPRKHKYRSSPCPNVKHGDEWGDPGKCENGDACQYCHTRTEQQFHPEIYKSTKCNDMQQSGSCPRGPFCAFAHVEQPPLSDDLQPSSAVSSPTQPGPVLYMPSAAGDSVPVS
Sequence | bound/input enrichment [ratio]
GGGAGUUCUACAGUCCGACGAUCGGGUGGGUGGUCAUUGCCGUUUGAGCUGCUGAUUUUCAUGAGUCGCCUUCAAAACUCUCGUGUAGGGUUGACAAUGUAAGGGGUGGGGGGAUCCAGCUUAUUCUUUUAUUUUCAAGUCCACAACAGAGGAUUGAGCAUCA | 0.425
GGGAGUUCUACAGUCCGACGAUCUCUUAACUUAUUCAUUUAACUUAUUUUUAUAGCUAGAUAAAUAUUGUUAGUCUUAGACAAUAGCUCACAUCUUUACAAAAGCAUGCUCUCCCUGUCCAUUUGUCUUAUAACAUGACCCAGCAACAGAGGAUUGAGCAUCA | 18.2
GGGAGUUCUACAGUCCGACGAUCUCUUAACUUAUUCAUUUAACUUAUUUUUAGCACUUAGUAAAUAUUGUUAGUCUUAGAGAGUAGUUCACAUUUUUUGAGAAGCAUGCCCUCCCUGUCCAUUUGUCUUAUAACAUGACCCAGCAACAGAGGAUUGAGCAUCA | 117
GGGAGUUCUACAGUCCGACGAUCUCAAGGGGGCACUGCAGAGCCAUGCCUUUCCUUGACAUACAGAAAAAGUUCGGCCUUAGCCUGGACCGGCACUUUAUGUUCCUAAGCGCAGAACAGCCCUAUAAGAACGCCGCUCGGUGCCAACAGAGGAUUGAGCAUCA | 0.0774
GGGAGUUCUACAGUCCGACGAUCGAAUCCUACUCAGGCGGAUUUUGCAACACCAAGCUCAAGUAGCAAUUAUCUUAGUCACAGUAGGGUAGUUUUGGGGCUCUGUGGCCAUGGUUUUACUCACAUGCAGGUUUGGAAAAUGUACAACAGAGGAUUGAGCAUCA | 1.58
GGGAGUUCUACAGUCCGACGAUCGUUCGGCUCUGGGAUCAUGCUACUAUGACAGAAGUGAAAUCUCUGAAUUUUAAUAUGUCUGUUAGUAGCAUGGAGUAUAUUCCUGAAGGAGAGAUUUUGGUUAUUACUUAUGGACGAUCUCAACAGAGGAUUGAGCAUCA | 0.327
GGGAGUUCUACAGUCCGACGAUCCGGAGCCCCUCCCUCUCCCAGGCCCGAGAUAUAACCCACCAGUGCCUUUUGUCUUCCUGUCAGCUCUGUCAAUCACGCCUGUCCUCUCACGCCCACACCAAGUGCCCAAAGUGGGGAGGGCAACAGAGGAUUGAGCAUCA | 0.393
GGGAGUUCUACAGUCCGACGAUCGAGCGUCUCGCUCGAACUGGGAUCAUCGUGACCACUAGUGAGGCUGUCCUCCUACAGCUGGUGGCUGACAAAGACCACCCGAAGUUCAAGGAAAUUCAGAACCUAAUUAAGGCGAGUGCCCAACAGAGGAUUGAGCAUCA | 0.139

Block 3
Target: RNA binding protein fox-1 homolog 2, RRM domain, GST-SBP tag (RBFOX2, Homo sapiens, UniProt O43251-10, residues 100-194)
Method: RNA Bind-n-Seq
Form: RNA
Sample: in vitro
Tested at: 365 nM
Setting: natural RNA segment, single round, ends assumed
Reference: no-protein control
Direction: higher = stronger binding
Target sequence (chain): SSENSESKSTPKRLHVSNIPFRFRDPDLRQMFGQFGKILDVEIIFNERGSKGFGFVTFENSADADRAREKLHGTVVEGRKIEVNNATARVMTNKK
Sequence | RBNS enrichment (R)
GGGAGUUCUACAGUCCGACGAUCUGGGAAAGAGAGCACUGGCUCACUGUGCAGUUUUCAUGUUUCCUCAGCAAGCCAUCAAGCCUCACAUCUCUACCAUCAGAGAUAGAGCUUGGCCAUUUAUCUAAGGAAGAUGGAAUUCUCGGGUGCCAA | 0.227
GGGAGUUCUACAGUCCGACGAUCAUCUGGGUAAAUAGAGGACAAAACUAAUUCUUUGAGGCUUUAACUUGGGCACUUGCCUUGAUUCCUUUUAUUAUUGGAAGUCAGAUACCCCCUCUCCAAAGUGAGCAGGCUGGAAUUCUCGGGUGCCAA | 0.433
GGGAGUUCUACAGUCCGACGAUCAUUCUGGGCUUGUAUAAUGCCUGUUGAUCUUGCCCUCUUAAUCAGUUUAUUGUUAUUCACAAAUGCAAAUAGGUUUUCAAACUACAGACAGUUUUGAAAGACAUUAAUUCUGGAAUUCUCGGGUGCCAA | 0.27
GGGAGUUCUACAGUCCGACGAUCAGUCUGUAAGGCCCAAAGUGGGUACAGACAGCCUGGGCUGGUAAAAGUAGGUCCUUAUUUACAAGGCUGCGUUAAAGUUGUACUAGGCAAACACACUGAUGUAGGAAGCAUGGAAUUCUCGGGUGCCAA | 1.96
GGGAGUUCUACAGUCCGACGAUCUGCUAGGUUGAAGUUCACCAUGUUUAAAAAAAAUGGGGGGCAUGGAUUUACAUUACAAAGGCGUCCACGGUGUAUUAGUGACAUUCUUCCAUUGACAUUUAGAGUGAAAUUGGAAUUCUCGGGUGCCAA | 0.367
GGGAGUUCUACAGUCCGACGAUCAAACAAAACAAAGGCUGUUUUUCCUAAUUUUGGCAUGAACCCCCCCUUGUUCCAAAUGAAGACGGCAUCACGAAGCAGCUCCAAAAGGAAAAGCUUGGGCGGUGCCCAGCUGGAAUUCUCGGGUGCCAA | 0.336
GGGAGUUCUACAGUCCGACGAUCAUAUUUGAGAAACAUGAUUAGGUGAAUAAAGUAUUCUAGCAAAAGCUCUAAUCUGUAGAUCAAAAUGUAGAAGUUUGUGCAUUAUUAAGAGGAAAGUCUUGUGCCAAGAAUGGAAUUCUCGGGUGCCAA | 0.948
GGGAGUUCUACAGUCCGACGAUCACAUUUCUGGAUCCAGGCCAGGUGAAGAUUAGGGCCAGGAAGCCUGAGCCCCCGGGGCCUCAAGGUAGGGAGCCGAAGAGGCUGCCAGGACUCUGCUGGGUUGAAAUUUGUGGAAUUCUCGGGUGCCAA | 0.598

Block 4
Target: Interferon regulatory factor 5, full length, phosphomimetic (IRF5, Homo sapiens, UniProt Q13568-2, residues 1-514, K96S/S451D/S453D/S456D/S462D)
Method: protein-binding microarray
Form: double-stranded DNA, one strand shown
Sample: in vitro
Tested at: 250 nM
Setting: 60-bp whole probe
Together with: salmon DNA 0.4 mg/ml
Reference: random background probes
Direction: higher = stronger binding
Constant ends, left off below: GCCTAGCAC … GTCTTGATTCGCTTGACGCTGCTG
Sequence | log fluorescence
TTAGATCTAAGTTTCGATTAGTGCTAG | 8.74 z-score
CAACCTATAGGTTCAACGACGTGCTAG | -0.158 z-score
GACGAACGGAGACTGGAGACGTGCTAG | -0.442 z-score
TCGGTTTCCAAATTGTCTCTGTGCTAG | 1.18 z-score
TCATGTTTCTGTGTCACACTGTGCTAG | 3.32 z-score
TTATGTTTCGGACTGGGTTAGTGCTAG | 5.74 z-score
TTTGGACTGGGTATCGGTTAGTGCTAG | 4.25 z-score
TTAGATTCCAGTTTCGATTGGTGCTAG | 9.4 z-score
GACGGACTGTGTATCGGGACGTGCTAG | 0.25 z-score
GACGATCTCAGTATCGAGTCGTGCTAG | 2.21 z-score
TTAGAACTGAGGTATCGATTAGTGCTA | 2.58 z-score
TTAGGTATCCTTATCGTTTAGTGCTAG | 0.693 z-score
TTAGATTTCGAGTTTCGATTAGTGCTA | 9.1 z-score
GAGGGTCTCGGTTTCGGGACGTGCTAG | 2.97 z-score
TGGGTCTTGGTTCTCAGCTTGTGCTAG | -0.796 z-score
TTAGGACTGGGACCGGGTTAGTGCTAG | -0.673 z-score
GACGGTTTCGCCACTGGGGACGTGCTA | 2.95 z-score
TTAGGACTGGGGCTTCGGTTAGTGCTA | -0.0719 z-score
GACGGTTTCCTACTGCTGCCGTGCTAG | 0.449 z-score
